Measured values of several laboratories.
Numbered parts are unrelated; each lists some results of a single study.

Set 1
Target: RING finger protein unkempt homolog, zinc fingers 1-6, GST-SBP tag (UNK, Homo sapiens, UniProt Q9C0B0, residues 30-357)
Method: RNA Bind-n-Seq
Molecule type: RNA
Medium: in vitro
Concentration: not given
Notes: RNA with constant flanks, human and mouse sites, ends assumed
Relative to: input RNA pool
Direction: higher = stronger binding
Endpoint: bound/input enrichment
Construct (chain): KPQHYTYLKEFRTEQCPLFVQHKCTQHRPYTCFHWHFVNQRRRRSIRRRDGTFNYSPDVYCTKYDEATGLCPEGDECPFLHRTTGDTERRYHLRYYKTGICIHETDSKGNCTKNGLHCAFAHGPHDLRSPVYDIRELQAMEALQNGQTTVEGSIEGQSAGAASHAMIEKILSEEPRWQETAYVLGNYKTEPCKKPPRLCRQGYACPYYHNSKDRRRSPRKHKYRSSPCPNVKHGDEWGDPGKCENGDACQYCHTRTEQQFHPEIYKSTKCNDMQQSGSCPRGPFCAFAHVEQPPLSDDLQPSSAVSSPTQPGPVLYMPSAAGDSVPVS
Oligonucleotide = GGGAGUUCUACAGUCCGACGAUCCAUGUAUCUGCAGUGCUUGAUGUGGAUUACUCUCCCACUGGGAAGGAGUUUGUGUCUGCUAGUUUCGAUAAAUCUAUUCGAAUCUUUCCUGUAGACAAAAGUCGAAGCAGGGAGGUAUAUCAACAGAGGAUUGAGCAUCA; value = 0.387 ratio
Oligonucleotide = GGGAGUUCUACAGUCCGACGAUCGUGGGAAAAACAACCUGGCAAAACAAAGAAUCUAAAGGAGAGACAGGGAAGAGAAGUAAGGAAGGUCAUAGUUUGGAGAUGGAGAAUGAGAAUCUUGUAGAAAAUGGUGCAGACUCCGAUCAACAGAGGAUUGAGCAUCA; value = 0.861 ratio
Oligonucleotide = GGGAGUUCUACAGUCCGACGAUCGGCUCAGUGAAGAAGGUCAACGAGUCCUCACUGAACUGGCCUCAGUUGGAGAAUAUUGGCAACUUUAUUAAAGCUAUUCAGGCUUAUGGUAUGAAGCCACAUGACAUAUUCGAAGCAAAUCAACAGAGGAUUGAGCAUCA; value = 0.0965 ratio
Oligonucleotide = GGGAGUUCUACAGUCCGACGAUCCCUUAUGUCUAUGUUGAAAUCCAUGGAAUCCCUGCUGAUUGUGCAGAACAAAGGACAAAAACAGUGCACCAGAAUGGAGACGCUCCCAUUUUUGAUGAAAGCUUUGAAUUUCAAAUCAACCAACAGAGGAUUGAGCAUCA; value = 0.132 ratio
Oligonucleotide = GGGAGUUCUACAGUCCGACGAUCGAUGAUGAUGAAGAAUCUGGACGAUUACGUUUUAAAACUGAAAGGAAAGAAGGAACAAUUAUUAGGCUUUCAGAUGUAACUAGAGAGAGAAGGAACAUUCCAGAAACUUUGGAACUUUCUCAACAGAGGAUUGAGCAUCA; value = 0.741 ratio
Oligonucleotide = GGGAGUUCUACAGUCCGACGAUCAAUACUGAAAAUAAGCUCCUGUUACAGCAGAGAUCAGAUGCUAAAAUUACCUUUCCAGGUUGUUUCACCAAUAGUUGCUGUAGUCAUCCAUUAAGUAACCCAGGCGAGCUGGAAGAGAACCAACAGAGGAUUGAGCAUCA; value = 0.453 ratio
Oligonucleotide = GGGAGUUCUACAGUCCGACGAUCGGAGUCGGGAGGCCUGAGUGUUCCUUCCAGCAUGUCGGAGGGGGAGUCCCAGACAGUACUUAGCAGUGGCUCAGACCCAAAGGUAGAAUCCUCAUCUUCAGCUCCUGGCCUGACAUCAGUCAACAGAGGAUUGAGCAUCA; value = 0.206 ratio
Oligonucleotide = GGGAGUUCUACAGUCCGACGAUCUUGUGCUGAUUUUUGGUGAUCAGACCUCAGCUCCCUUAAUACUGCCCUUUUUCCUUUAAGAGAUUUCAUGUGUGCACAGAGAGGCCACCCUUUUCAGGACUGUGCAUUUUCAGGUUUGUGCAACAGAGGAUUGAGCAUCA; value = 0.195 ratio

Set 2
Target: RNA binding protein fox-1 homolog 2, RRM domain, GST-SBP tag (RBFOX2, Homo sapiens, UniProt O43251-10, residues 100-194)
Method: RNA Bind-n-Seq
Molecule type: RNA
Medium: in vitro
Concentration: 365 nM
Notes: natural RNA segment, single round, ends assumed
Relative to: no-protein control
Direction: higher = stronger binding
Endpoint: RBNS enrichment (R)
Target sequence (chain): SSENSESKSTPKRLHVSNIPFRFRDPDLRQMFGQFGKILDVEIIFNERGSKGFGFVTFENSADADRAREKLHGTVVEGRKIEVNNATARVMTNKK
Oligonucleotide = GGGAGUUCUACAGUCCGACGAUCUGGACGCACAUAUACAUAGAUGUACUCACUUAUCUAUGGUACAGAUGGGUGGGGAAGAGGUUGCUCUUUACUCUCCAUCUCUGACACAAAGUGUAGCUGCUAGAGGGAUGUGGAAUUCUCGGGUGCCAA; value = 0.272
Oligonucleotide = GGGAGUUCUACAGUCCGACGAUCCUGGACAUGUUCUCUCGGCUGGCUUUCUGUUCCCCGCCUGCCUCCAGGAGGCCAGGGUGGUGGUGCUGCUAGGCCAUCCCAAUGUUAGGCUUGUGGGUGAUUCCCCGGGCUGGAAUUCUCGGGUGCCAA; value = 0.255
Oligonucleotide = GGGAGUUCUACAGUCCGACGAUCGCAGUUUAUUUUUCUUGGCCAACACAUUAAAACCAUUCUUGGAUUUCAAGUAGCCAAUUUUGCCUUUUUAUGUAUUUUUACAUAGUUUCCUCUUCAAGAAAAAAAAAGCAUGGAAUUCUCGGGUGCCAA; value = 0.919
Oligonucleotide = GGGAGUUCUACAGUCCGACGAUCAGCGGUUUUUGAGCUUUCAAUAAGCUAUAGCUUUGUUUAUUUCACCUGUUCACUUACUGUAUAAUUUAAAAUCAUUUAUGUAGCUGAGACACUUUGAUACUUCAAUUAUAUGGAAUUCUCGGGUGCCAA; value = 0.725
Oligonucleotide = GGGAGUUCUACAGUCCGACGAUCGUCUUGGACUCAAAGGCUAAACUGAUCCAGUCCUUUCUCCUUUGUGUCAAUAAAAGGCUAAACUGAAGACCUCCAGAAGUGGACAGAUGUCUGGUUUUCUUUUUGGUGCUUGGAAUUCUCGGGUGCCAA; value = 0.634
Oligonucleotide = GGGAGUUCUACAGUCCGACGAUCACCACCUGUGUGCCUGGUGUCUGUAGAAGCCAGCAGGAGGCUGUUAGAUCUCCUGGGCCGGGCGUUCCAAACAGUUGUGAGCUACUGUGUGAGUGCUAGGAGCAAACCUGUGGAAUUCUCGGGUGCCAA; value = 0.302
Oligonucleotide = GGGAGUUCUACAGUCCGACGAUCUUACAAUUUUUACAGCUUUCCUAGGAUUUUAAAAUGGAAAUGUCAAUAAAUGCUACGAAUCGGUGUGAAGCUGUUCUUUGUGGUUCAUUCCUUGGGAACACGGUGGCUUUUGGAAUUCUCGGGUGCCAA; value = 0.455

Set 3
Target: Ras GTPase-activating protein-binding protein 1, RRM domain (G3BP1, Homo sapiens, UniProt Q13283)
Sequence of UniProt Q13283 (whole entry, looked up): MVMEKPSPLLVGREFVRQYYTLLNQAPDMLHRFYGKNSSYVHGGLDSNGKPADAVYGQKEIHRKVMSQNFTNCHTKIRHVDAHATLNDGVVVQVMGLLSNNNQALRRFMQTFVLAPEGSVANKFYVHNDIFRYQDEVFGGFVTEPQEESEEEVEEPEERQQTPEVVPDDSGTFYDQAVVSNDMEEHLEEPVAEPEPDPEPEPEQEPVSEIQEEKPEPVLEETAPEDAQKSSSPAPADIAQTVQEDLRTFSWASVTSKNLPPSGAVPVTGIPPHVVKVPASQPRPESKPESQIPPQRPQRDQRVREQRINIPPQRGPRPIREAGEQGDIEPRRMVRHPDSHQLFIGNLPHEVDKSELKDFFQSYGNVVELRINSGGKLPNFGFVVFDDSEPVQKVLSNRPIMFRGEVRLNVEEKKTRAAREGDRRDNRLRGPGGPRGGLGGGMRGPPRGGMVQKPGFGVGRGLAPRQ
Method: RNA Bind-n-Seq
Molecule type: RNA
Medium: in vitro
Concentration: 1 µM
Notes: whole 134-nt RNA, ends assumed
Added: 150 mM KCl
Relative to: input library
Direction: higher = stronger binding
Endpoint: log2 enrichment
Oligonucleotide = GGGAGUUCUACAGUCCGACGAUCUCAAGUCCUGUGCUACACAUCGUAUGUACCGAAUCGGGUUGGGGUUGGGUUGGGGAAAGUAUUAUGUUACGCCGUUCGGAUCUGCACUUCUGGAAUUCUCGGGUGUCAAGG; value = 1.04
Oligonucleotide = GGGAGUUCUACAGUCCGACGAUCUCCUGUGCUACACAUCGUAUGUACCGAAUCGGGAAAGGGUUUUUUUGGGAAAAAAAGGGAAAGUAUUAUGUUACGCCGUUCGGAUCUGCAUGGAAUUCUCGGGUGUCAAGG; value = -0.117
Oligonucleotide = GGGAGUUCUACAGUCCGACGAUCAAGUCCUGUGCUACACAUCGUAUGUACCGAAUCGGAAAAGGGAAAAGGGGAAAAGGGAAAGUAUUAUGUUACGCCGUUCGGAUCUGCACUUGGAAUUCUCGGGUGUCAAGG; value = 0.11
Oligonucleotide = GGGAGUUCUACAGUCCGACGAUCGUCCUGUGCUACACAUCGUAUGUACCGAAUCGGGUUUUUGGGAAAGGGAAAAAAAGGGAAAGUAUUAUGUUACGCCGUUCGGAUCUGCACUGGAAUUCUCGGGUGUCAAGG; value = 0.0877
Oligonucleotide = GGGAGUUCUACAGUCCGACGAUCCCUCAAGUCCUGUGCUACACAUCGUAUGUACCGAAUCGGGGUGGGGUGGGUGGAAAGUAUUAUGUUACGCCGUUCGGAUCUGCACUUCCAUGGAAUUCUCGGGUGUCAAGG; value = 0.186
Oligonucleotide = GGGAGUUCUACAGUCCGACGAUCCCUGUGCUACACAUCGUAUGUACCGAAUCGGGGCCCCCCCGGCCCCCCCGGCCCCCCCGGGAAAGUAUUAUGUUACGCCGUUCGGAUCUGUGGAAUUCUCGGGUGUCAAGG; value = -0.744
Oligonucleotide = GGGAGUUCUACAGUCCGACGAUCGCAGGAAGUAAAAAAAAAUGGAAAUGCUUCGGAUAGUGGCAGGGGUGGGGGUUGCUAAGGAAAGGGUGGGAUGGGAGUGGGUAAAGAGUUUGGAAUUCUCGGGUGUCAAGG; value = 1.29

Further values, each from its own experiment
Substance = PhoQ, residues 284 288 289 292 302 303 SSTLSG; target = PhoP, residues 12 14 15 18 19 NFCKL (Escherichia coli, UniProt P23836); test = Sort-seq, item: YFP reporter; system = E. coli; setting = PhoQ-PhoP variant library, added: 10 µM Mg2+; how to read = relative to: high Mg2+ state, higher = stronger signaling; endpoint = fold induction; value = 10.7

Some of these lines once more (set 1):
Oligonucleotide = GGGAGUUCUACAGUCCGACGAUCCAUGUAUCUGCAGUGCUUGAUGUGGAUUACUCUCCCACUGGGAAGGAGUUUGUGUCUGCUAGUUUCGAUAAAUCUAUUCGAAUCUUUCCUGUAGACAAAAGUCGAAGCAGGGAGGUAUAUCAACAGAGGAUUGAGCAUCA; value = 0.387 ratio
Oligonucleotide = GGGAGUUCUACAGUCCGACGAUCGGAGUCGGGAGGCCUGAGUGUUCCUUCCAGCAUGUCGGAGGGGGAGUCCCAGACAGUACUUAGCAGUGGCUCAGACCCAAAGGUAGAAUCCUCAUCUUCAGCUCCUGGCCUGACAUCAGUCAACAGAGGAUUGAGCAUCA; value = 0.206 ratio
Oligonucleotide = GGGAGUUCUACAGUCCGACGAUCGGCUCAGUGAAGAAGGUCAACGAGUCCUCACUGAACUGGCCUCAGUUGGAGAAUAUUGGCAACUUUAUUAAAGCUAUUCAGGCUUAUGGUAUGAAGCCACAUGACAUAUUCGAAGCAAAUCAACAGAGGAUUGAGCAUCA; value = 0.0965 ratio
